{"data": "Measured values pooled from the literature", "PTGS2": "Prostaglandin G/H synthase 2 (PTGS2, Homo sapiens, UniProt P35354)", "HDAC3": "Histone deacetylase 3 (HDAC3, Homo sapiens, UniProt O15379)", "Calpain-2 catalytic subunit": "Calpain-2 catalytic subunit (Homo sapiens, UniProt P17655)", "P4HB": "Protein disulfide-isomerase (P4HB, Homo sapiens, UniProt P07237)", "note": "Lines come from different studies, so protocols differ.", "sequence of UniProt P35354 (whole entry, looked up)": "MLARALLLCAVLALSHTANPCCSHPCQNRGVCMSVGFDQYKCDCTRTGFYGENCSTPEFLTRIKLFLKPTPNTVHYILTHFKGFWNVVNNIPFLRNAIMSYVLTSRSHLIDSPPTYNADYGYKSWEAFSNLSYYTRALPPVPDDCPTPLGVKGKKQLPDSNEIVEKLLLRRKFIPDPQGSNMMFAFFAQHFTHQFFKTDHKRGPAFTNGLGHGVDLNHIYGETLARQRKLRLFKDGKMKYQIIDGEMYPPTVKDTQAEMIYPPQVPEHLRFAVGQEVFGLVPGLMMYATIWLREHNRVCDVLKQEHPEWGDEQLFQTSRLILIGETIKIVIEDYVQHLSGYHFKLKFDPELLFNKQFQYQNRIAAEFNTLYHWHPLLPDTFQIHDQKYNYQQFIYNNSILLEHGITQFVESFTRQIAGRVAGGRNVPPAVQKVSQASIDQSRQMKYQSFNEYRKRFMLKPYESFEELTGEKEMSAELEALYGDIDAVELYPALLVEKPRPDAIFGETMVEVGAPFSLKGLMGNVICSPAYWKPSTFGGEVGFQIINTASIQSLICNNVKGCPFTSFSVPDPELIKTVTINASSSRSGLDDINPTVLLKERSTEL", "sequence of UniProt O15379 (whole entry, looked up)": "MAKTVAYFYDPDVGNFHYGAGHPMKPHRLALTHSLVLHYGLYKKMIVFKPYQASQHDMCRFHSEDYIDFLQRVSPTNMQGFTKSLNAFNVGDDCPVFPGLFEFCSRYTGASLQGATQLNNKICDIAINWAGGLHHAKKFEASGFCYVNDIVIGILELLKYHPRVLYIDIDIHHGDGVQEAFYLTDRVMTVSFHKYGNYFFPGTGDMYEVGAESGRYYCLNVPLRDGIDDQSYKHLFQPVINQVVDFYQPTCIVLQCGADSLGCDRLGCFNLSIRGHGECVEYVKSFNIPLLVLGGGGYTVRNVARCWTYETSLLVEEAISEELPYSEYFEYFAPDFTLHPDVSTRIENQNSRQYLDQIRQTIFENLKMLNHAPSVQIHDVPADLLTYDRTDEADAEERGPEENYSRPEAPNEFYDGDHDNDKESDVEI", "sequence of UniProt P17655 (whole entry, looked up)": "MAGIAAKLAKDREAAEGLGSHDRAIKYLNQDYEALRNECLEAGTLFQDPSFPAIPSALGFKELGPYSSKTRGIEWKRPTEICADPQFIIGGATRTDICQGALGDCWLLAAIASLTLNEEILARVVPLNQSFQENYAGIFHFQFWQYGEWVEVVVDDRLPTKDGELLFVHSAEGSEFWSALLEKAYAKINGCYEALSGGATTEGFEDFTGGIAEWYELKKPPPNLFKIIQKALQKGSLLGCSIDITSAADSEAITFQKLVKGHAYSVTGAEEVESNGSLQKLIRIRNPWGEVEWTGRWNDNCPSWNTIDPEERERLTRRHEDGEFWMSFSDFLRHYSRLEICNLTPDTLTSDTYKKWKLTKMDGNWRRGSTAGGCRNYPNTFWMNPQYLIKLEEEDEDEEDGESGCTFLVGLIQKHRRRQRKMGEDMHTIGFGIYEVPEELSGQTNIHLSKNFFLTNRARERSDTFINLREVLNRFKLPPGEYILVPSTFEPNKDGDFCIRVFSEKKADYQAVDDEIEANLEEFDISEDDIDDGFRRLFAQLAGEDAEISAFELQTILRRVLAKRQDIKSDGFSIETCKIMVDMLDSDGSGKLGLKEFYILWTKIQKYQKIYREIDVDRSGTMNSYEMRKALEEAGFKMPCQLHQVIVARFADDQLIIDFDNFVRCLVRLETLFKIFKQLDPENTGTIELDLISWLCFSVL", "sequence of UniProt P07237 (whole entry, looked up)": "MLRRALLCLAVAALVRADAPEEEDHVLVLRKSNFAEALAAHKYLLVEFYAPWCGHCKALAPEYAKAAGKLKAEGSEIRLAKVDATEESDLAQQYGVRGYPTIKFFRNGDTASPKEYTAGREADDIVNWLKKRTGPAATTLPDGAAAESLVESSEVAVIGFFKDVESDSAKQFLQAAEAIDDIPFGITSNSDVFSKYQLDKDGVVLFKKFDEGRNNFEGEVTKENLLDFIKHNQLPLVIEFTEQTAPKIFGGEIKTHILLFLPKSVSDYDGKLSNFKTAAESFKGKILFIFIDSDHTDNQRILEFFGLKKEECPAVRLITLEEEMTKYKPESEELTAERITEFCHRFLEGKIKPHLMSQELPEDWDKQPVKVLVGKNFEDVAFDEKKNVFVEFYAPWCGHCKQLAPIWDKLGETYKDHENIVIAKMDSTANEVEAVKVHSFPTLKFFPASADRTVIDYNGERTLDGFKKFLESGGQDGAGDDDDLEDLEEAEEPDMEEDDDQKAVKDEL", "sequence of UniProt Q9Y251 (whole entry, looked up)": "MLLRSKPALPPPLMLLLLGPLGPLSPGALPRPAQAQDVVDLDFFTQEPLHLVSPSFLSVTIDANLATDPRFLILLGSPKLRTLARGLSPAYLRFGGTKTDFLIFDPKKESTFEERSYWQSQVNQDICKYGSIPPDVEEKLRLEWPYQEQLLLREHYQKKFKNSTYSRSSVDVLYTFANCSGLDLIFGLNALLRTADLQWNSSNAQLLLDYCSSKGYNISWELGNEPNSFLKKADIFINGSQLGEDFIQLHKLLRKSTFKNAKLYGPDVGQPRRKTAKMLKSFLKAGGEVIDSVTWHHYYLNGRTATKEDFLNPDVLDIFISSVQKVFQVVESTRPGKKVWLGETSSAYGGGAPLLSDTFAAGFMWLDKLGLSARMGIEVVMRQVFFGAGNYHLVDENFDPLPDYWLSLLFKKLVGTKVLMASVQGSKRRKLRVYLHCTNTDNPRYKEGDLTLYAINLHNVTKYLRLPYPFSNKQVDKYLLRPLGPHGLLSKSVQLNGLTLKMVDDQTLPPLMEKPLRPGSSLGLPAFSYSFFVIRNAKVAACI", "sequence of UniProt Q8NHU3 (whole entry, looked up)": "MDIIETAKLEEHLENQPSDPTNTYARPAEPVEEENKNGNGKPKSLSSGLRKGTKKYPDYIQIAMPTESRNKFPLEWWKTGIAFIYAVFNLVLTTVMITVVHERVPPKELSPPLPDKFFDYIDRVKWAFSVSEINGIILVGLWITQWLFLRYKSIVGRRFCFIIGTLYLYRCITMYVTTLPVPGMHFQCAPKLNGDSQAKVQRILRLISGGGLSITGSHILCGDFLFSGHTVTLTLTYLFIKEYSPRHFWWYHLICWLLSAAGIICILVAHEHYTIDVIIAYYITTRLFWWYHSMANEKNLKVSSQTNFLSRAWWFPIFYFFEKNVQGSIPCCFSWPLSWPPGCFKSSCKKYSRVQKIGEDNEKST", "sequence of UniProt P28482 (whole entry, looked up)": "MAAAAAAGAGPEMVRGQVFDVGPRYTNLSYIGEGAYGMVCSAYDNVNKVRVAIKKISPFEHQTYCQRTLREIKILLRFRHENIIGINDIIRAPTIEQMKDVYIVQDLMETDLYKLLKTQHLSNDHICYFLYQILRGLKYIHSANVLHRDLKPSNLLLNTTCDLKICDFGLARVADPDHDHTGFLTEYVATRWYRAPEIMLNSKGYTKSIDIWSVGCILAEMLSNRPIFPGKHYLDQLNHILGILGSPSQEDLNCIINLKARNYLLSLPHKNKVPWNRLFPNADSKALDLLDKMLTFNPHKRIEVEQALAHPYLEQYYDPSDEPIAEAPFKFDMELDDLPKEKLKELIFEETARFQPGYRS", "sequence of UniProt O60733 (whole entry, looked up)": "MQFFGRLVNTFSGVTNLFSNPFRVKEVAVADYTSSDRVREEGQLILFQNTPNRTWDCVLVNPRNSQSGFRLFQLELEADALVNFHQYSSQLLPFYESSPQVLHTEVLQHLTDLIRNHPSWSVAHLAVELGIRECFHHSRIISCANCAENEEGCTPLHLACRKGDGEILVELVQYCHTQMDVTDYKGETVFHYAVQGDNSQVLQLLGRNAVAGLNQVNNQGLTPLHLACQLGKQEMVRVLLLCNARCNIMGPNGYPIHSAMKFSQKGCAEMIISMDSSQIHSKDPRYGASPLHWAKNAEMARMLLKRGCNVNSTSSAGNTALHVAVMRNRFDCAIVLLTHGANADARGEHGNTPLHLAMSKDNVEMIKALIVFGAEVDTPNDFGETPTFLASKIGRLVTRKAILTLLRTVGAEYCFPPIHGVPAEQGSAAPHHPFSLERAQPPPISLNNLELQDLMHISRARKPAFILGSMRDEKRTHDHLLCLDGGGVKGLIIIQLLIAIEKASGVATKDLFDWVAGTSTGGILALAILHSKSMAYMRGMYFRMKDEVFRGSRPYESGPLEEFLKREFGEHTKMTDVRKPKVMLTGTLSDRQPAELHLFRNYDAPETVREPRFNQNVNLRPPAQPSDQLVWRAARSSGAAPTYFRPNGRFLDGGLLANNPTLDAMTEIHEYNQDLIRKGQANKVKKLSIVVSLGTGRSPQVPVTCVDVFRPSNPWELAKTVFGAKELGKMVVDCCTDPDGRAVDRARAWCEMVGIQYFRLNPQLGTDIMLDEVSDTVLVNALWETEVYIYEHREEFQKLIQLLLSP", "sequence of UniProt P98170 (whole entry, looked up)": "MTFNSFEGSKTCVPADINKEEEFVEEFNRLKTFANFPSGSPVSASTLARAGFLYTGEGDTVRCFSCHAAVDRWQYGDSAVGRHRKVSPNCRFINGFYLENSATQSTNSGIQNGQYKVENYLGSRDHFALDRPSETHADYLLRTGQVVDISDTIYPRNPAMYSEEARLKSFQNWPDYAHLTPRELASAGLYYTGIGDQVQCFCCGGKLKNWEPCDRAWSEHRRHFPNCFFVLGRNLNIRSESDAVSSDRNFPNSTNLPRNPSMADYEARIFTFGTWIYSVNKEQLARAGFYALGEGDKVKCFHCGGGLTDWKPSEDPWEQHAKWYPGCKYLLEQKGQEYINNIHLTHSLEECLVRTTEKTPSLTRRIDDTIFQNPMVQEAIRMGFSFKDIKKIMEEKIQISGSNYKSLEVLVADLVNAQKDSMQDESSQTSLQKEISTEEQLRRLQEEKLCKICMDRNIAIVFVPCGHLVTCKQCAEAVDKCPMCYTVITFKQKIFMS"}
{"Structure (SMILES)": "Cc1ccc(C(=O)Nc2ccc(CP(=O)(O)O)cc2CP(=O)(O)O)cc1NC(=O)c1cccc(NC(=O)Nc2cccc(C(=O)Nc3cc(C(=O)Nc4ccc(CP(=O)(O)O)cc4CP(=O)(O)O)ccc3C)c2)c1", "target": "Coagulation factor XIII A chain (F13A1, Homo sapiens, UniProt P00488)", "assay": "enzyme activity, inhibitor", "scale": "baseline: factor XIa over factor XIIIa", "selectivity ratio": "> 27 fold"}
{"Structure (SMILES)": "Clc1ccc(NCc2cn(-c3ccccc3)nc2-c2ccc(OCc3ccccc3)cc2)cc1", "target": "PTGS2", "assay": "enzyme activity, inhibitor, TMPD chromogenic", "scale": "baseline: COX-1 IC50 over COX-2 IC50", "selectivity ratio": 47.5}
{"Structure (SMILES)": "COc1ccc(CN(CCCCCCC(=O)NO)Cc2ccc(OC)c(OC)c2)cc1OC", "target": "HDAC3", "assay": "deacetylase activity, inhibitor, fluorescence", "conditions": "added: Boc-Lys(Ac)-AMC substrate", "scale": "baseline: IC50 HDAC3 over IC50 HDAC1", "selectivity ratio": 1.1}
{"Structure (SMILES)": "NS(=O)(=O)c1ccc(-n2cc(CNc3ccc(Cl)cc3)c(-c3ccc(OCc4ccccc4)cc3)n2)cc1", "target": "PTGS2", "assay": "enzyme activity, inhibitor, TMPD chromogenic", "scale": "baseline: COX-1 IC50 over COX-2 IC50", "selectivity ratio": 64.4}
{"Structure (SMILES)": "O=C(CCCCCCNCc1cccnc1)NO", "target": "HDAC3", "assay": "deacetylase activity, inhibitor, fluorescence", "conditions": "added: Boc-Lys(Ac)-AMC substrate", "scale": "baseline: IC50 HDAC3 over IC50 HDAC1", "selectivity ratio": 0.72}
{"Structure (SMILES)": "O=C(Nc1cccnc1)c1ccccc1OCc1ccccc1", "target": "Phosphatidylcholine:ceramide cholinephosphotransferase 2 (SGMS2, Homo sapiens, UniProt Q8NHU3)", "assay": "enzyme activity, inhibitor", "scale": "baseline: IC50 SMS1 over IC50 SMS2", "selectivity ratio": 48}
{"Structure (SMILES)": "Cc1cc(CNCCCCCCC(=O)NO)ccc1F", "target": "HDAC3", "assay": "deacetylase activity, inhibitor, fluorescence", "conditions": "added: Boc-Lys(Ac)-AMC substrate", "scale": "baseline: IC50 HDAC3 over IC50 HDAC1", "selectivity ratio": 1.4}
{"Structure (SMILES)": "CCC(NC(=O)C(CC(C)C)NC(=O)CCc1ccc(C#N)cc1)C(=O)C(=O)NCc1cc(OC)cc(OC)c1 (stereo not drawn)", "target": "Calpain-2 catalytic subunit", "assay": "enzyme activity, inhibitor", "conditions": "added: Suc-Leu-Tyr-AMC", "scale": "baseline: Ki calpain-1 over calpain-2", "selectivity ratio": 1.1}
{"Structure (SMILES)": "COC(=O)[C@@]1(C)C=C(C(=O)Nc2cccc(C(=O)Nc3ccc(Nc4nccc(-c5cccnc5)n4)c(C)c3)c2)C(=O)CC1", "target": "Mitogen-activated protein kinase 1 (MAPK1, Homo sapiens, UniProt P28482)", "scale": "baseline: JNK1 over MAPK1", "selectivity ratio": "~1000 fold"}
{"Structure (SMILES)": "CCC(NC(=O)C(CC(C)C)NC(=O)CCc1ccccc1)C(=O)C(=O)NCc1cccc(OC)c1 (stereo not drawn)", "target": "Calpain-2 catalytic subunit", "assay": "enzyme activity, inhibitor", "conditions": "added: Suc-Leu-Tyr-AMC", "scale": "baseline: Ki calpain-1 over calpain-2", "selectivity ratio": 2.8}
{"Structure (SMILES)": "Brc1ccc(NCc2cn(-c3ccccc3)nc2-c2ccc(OCc3ccccc3)cc2)cc1", "target": "PTGS2", "assay": "enzyme activity, inhibitor, TMPD chromogenic", "scale": "baseline: COX-1 IC50 over COX-2 IC50", "selectivity ratio": 13}
{"Structure (SMILES)": "O=C(CCCCCCNCc1ccc([N+](=O)[O-])cc1)NO", "target": "HDAC3", "assay": "deacetylase activity, inhibitor, fluorescence", "conditions": "added: Boc-Lys(Ac)-AMC substrate", "scale": "baseline: IC50 HDAC3 over IC50 HDAC1", "selectivity ratio": 4.5}
{"Structure (SMILES)": "CN(C)CCNC(=O)c1cccc2c(NCCCCc3c(N)nc(N)nc3N)c3ccccc3nc12", "target": "RNA D, U–U mismatch", "assay": "binding, ITC", "scale": "baseline: Kd RNA A over Kd RNA D", "selectivity ratio": 6.9}
{"Structure (SMILES)": "CCC(NC(=O)C(CC(C)C)NC(=O)NCc1ccccc1)C(=O)C(=O)NCc1cccc(OC)c1 (stereo not drawn)", "target": "Calpain-2 catalytic subunit", "assay": "enzyme activity, inhibitor", "conditions": "added: Suc-Leu-Tyr-AMC", "scale": "baseline: Ki calpain-1 over calpain-2", "selectivity ratio": 1.7}
{"Structure (SMILES)": "CC(=O)NCCO[C@H]1[C@H](O)[C@@H](O)[C@@H]2O[C@@H]2[C@@H]1C(=O)O", "target": "Heparanase (HPSE, Homo sapiens, UniProt Q9Y251)", "assay": "inhibitor, competitive ABPP", "scale": "baseline: IC50 E. coli β-glucuronidase over HPSE", "selectivity ratio": 20}
{"Structure (SMILES)": "O=C(CCCCCCNCc1ccccc1)NO", "target": "HDAC3", "assay": "deacetylase activity, inhibitor, fluorescence", "conditions": "added: Boc-Lys(Ac)-AMC substrate", "scale": "baseline: IC50 HDAC3 over IC50 HDAC1", "selectivity ratio": 1.3}
{"Structure (SMILES)": "CN[C@@H](C)C(=O)N[C@H]1CCCCNC(=O)[C@H](Cc2ccccc2)NC(=O)[C@@H]2CCCN2C(=O)[C@@H](NC(=O)[C@H](C)NC)CCCCNC(=O)[C@H](Cc2ccccc2)NC(=O)[C@@H]2CCCN2C1=O", "target": "E3 ubiquitin-protein ligase XIAP, BIR3 domain (XIAP, Homo sapiens, UniProt P98170)", "assay": "binding, fluorescence polarization", "scale": "baseline: BIR3 over BIR2 affinity", "selectivity ratio": "~1000"}
{"Structure (SMILES)": "COc1cccc(NCc2cn(-c3ccccc3)nc2-c2ccc(OCc3ccccc3)cc2)c1", "target": "PTGS2", "assay": "enzyme activity, inhibitor, TMPD chromogenic", "scale": "baseline: COX-1 IC50 over COX-2 IC50", "selectivity ratio": 22}
{"Structure (SMILES)": "CCC(NC(=O)C(CC(C)C)NC(=O)NCc1ccc(C#N)cc1)C(=O)C(=O)NCc1cc(OC)cc(OC)c1 (stereo not drawn)", "target": "Calpain-2 catalytic subunit", "assay": "enzyme activity, inhibitor", "conditions": "added: Suc-Leu-Tyr-AMC", "scale": "baseline: Ki calpain-1 over calpain-2", "selectivity ratio": 1.6}
{"Structure (SMILES)": "Cc1ccc(NCc2cn(-c3ccc(S(N)(=O)=O)cc3)nc2-c2ccc(OCc3ccccc3)cc2)cc1", "target": "PTGS2", "assay": "enzyme activity, inhibitor, TMPD chromogenic", "scale": "baseline: COX-1 IC50 over COX-2 IC50", "selectivity ratio": 74.9}
{"Structure (SMILES)": "O=C1CCc2ccc(NS(=O)(=O)c3cccc(Oc4ccccc4)c3)cc2N1", "target": "85/88 kDa calcium-independent phospholipase A2 (PLA2G6, Homo sapiens, UniProt O60733)", "assay": "inhibitor, fluorescence", "scale": "baseline: cPLA2 over target", "selectivity ratio": "> 100 fold"}
{"Structure (SMILES)": "CCCCCCc1ccc(S(=O)(=O)N2CC2C(=O)NC)cc1 (stereo not drawn)", "target": "P4HB", "assay": "insulin reduction, inhibitor", "scale": "baseline: IC50 PDIA1 over IC50 PDIA3", "selectivity ratio": "0.0004 to 0.0035"}
{"Structure (SMILES)": "CCC(NC(=O)C(CC(C)C)NC(=O)CCc1ccccc1)C(=O)C(=O)NCc1cc(F)cc(OC)c1 (stereo not drawn)", "target": "Calpain-2 catalytic subunit", "assay": "enzyme activity, inhibitor", "conditions": "added: Suc-Leu-Tyr-AMC", "scale": "baseline: Ki calpain-1 over calpain-2", "selectivity ratio": 4.5}
{"Structure (SMILES)": "O=C(CCCCCCN(Cc1ccc2c(c1)OCO2)Cc1ccc2c(c1)OCO2)NO", "target": "HDAC3", "assay": "deacetylase activity, inhibitor, fluorescence", "conditions": "added: Boc-Lys(Ac)-AMC substrate", "scale": "baseline: IC50 HDAC3 over IC50 HDAC1", "selectivity ratio": 1.5}
{"Structure (SMILES)": "NS(=O)(=O)c1ccc(-n2cc(CNc3ccc(F)cc3)c(-c3ccc(OCc4ccccc4)cc3)n2)cc1", "target": "PTGS2", "assay": "enzyme activity, inhibitor, TMPD chromogenic", "scale": "baseline: COX-1 IC50 over COX-2 IC50", "selectivity ratio": 22.2}
{"Structure (SMILES)": "Cc1cc(CN(CCCCCCC(=O)NO)Cc2ccc(F)c(C)c2)ccc1F", "target": "HDAC3", "assay": "deacetylase activity, inhibitor, fluorescence", "conditions": "added: Boc-Lys(Ac)-AMC substrate", "scale": "baseline: IC50 HDAC3 over IC50 HDAC1", "selectivity ratio": 1.4}
{"Structure (SMILES)": "CCCCCCc1ccc(S(=O)(=O)N2CC2C(=O)N(C)C)cc1 (stereo not drawn)", "target": "P4HB", "assay": "insulin reduction, inhibitor", "scale": "baseline: IC50 PDIA1 over IC50 PDIA3", "selectivity ratio": "0.0004 to 0.0035"}
{"note": "Some of these lines once more:"}
{"Structure (SMILES)": "O=C(CCCCCCNCc1ccc([N+](=O)[O-])cc1)NO", "target": "HDAC3", "assay": "deacetylase activity, inhibitor, fluorescence", "conditions": "added: Boc-Lys(Ac)-AMC substrate", "scale": "baseline: IC50 HDAC3 over IC50 HDAC1", "selectivity ratio": 4.5}
{"Structure (SMILES)": "CN(C)CCNC(=O)c1cccc2c(NCCCCc3c(N)nc(N)nc3N)c3ccccc3nc12", "target": "RNA D, U–U mismatch", "assay": "binding, ITC", "scale": "baseline: Kd RNA A over Kd RNA D", "selectivity ratio": 6.9}
{"Structure (SMILES)": "CCC(NC(=O)C(CC(C)C)NC(=O)NCc1ccccc1)C(=O)C(=O)NCc1cccc(OC)c1 (stereo not drawn)", "target": "Calpain-2 catalytic subunit", "assay": "enzyme activity, inhibitor", "conditions": "added: Suc-Leu-Tyr-AMC", "scale": "baseline: Ki calpain-1 over calpain-2", "selectivity ratio": 1.7}
